Published values of several laboratories.
Each numbered part is a random draw from the data of one study; scales do not carry over between parts. Changes are numbered by the printed parent chain.

Set 1 — technique: RNA Bind-n-Seq; molecule type: RNA; medium: in vitro; tested at: 365 nM; relative to: no-protein control; direction: higher = stronger binding
Target: RNA binding protein fox-1 homolog 2, RRM domain, GST-SBP tag (RBFOX2, Homo sapiens, UniProt O43251-10, residues 100-194)
Setting: natural RNA segment, single round, ends assumed
Constant ends, left off below: GGGAGUUCUACAGUCCGACGAUC … UGGAAUUCUCGGGUGCCAA
Residues (chain): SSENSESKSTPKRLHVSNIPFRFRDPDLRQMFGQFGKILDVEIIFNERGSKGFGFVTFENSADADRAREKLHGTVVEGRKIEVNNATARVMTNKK
Sequence | RBNS enrichment (R)
UAAUGGGGCCUAUGACUUGAAUGAAUAGAAAUGAAUAAGCUGGUGUUUGUUUUUUCAAAAUGGAAGUAAUUUAGAUUUGUUCUCCUCAUACAUAAAAUGAUUUUAGUUCA | 0.605
AGGCUCUGCUGUCCUCUUAAGCCUCCUUACUCUCCUUGGGCUCAUCGACUAUCGGUUCUGUGCCUGUGCUCUGUUGUGUUGGAGGGAAGGACUGGUAGUUCUGAUUUUUA | 2.81
AUAGCAGACGGACAGCCAGUGACCAUUCAUGGUCUGGAAUGUGAAGUUCACUACCAUUUGUCAAGAACCACUCUGUCCACAUCCUUUGACCUUUUGGCUUCCACGUCACC | 0.211
CUCUGCAGUCAGUCUGUUUUCAGAGGCACCCCAGCGAGCCCAGUGCAAGCCCGUAACCCUCCAGAGCUCCUUCACACUGCGCUCUCCAAACCACCCCAUCCUCACAGCGA | 0.594
ACAGGAGCGCAGUAUUUAGUCCAUUGUUUUAUCCAGUGAGACCCAAGCUAGCCUUGAAUAAUUCUUCUCUCGUCUUCCUGAAACACUAUUAUGCUUGUUGUACCUUUAAA | 0.73
UAAGAAAAAUUCUUAUUUCUUUUUUUCACAGUGAACAUAAUCCUAAAUCCUUGGAUAUUUUUAGAAGUCUGUAACUUUACACAAAUAAUGAAAUAAUUUUUAAUUCAAAG | 0.617
UGCAGAAUGACAGCUCUUUGUUUCUGAAGUAACCAGCACACCACACUCAUGUUUAAAAGGACAAAGGGGAAUGAAGGUCAGUGAGAUCUAAAAAGUGUAUUUCUUUGCCA | 1.22
AGGCAUGAUCCUCUAUGGACACUAACUUACCCCAUGUCCACCUUUGCCCAAAAACACUGAAACUGUGCUCUCUGCCACCUGCCCCCCACGCUUUUUCUUUUUCUCUCUUU | 0.961
AUUUGGGGGGGAGGAUGGGGAAAAGAGCUGAGAGUUUAUGCUGAAAUGGAUUUAUAGAAUAUUUGUAAAUCUAUUUUUAGUGUUUGUUCGUUUUUUUAACUGUUCAUUCC | 0.587
UUUAAAGAUGAACUGAAAUGCACAUAGCCAAGUCUUGAGAUACAAGAUUGAAUGUGUAUUUCUUAAAAAUACAACUUUGUGUUGUACUUUGAAAUAAAUGAUGCUUUUUU | 0.423
UGCCUUGAAAAAUGACAAUUGUGAACACGAUAGUUAACUGUACUACUUUUUAAGCUGUUGUUAUGCAAAUCUUGAAGAAGUUACUGGCAUGGUUGUUGCAUAUAGUAAAA | 2.14
UGUCUCGUGUGACAGAUUGCUUCAUUUAUGUUUCUACAUAGUAAGGUGACUGCCAAAUAAUAUUUGAAGUCAUCUGUCUCUUUGUAAAUUAUUUUAUAUGACCUAUAAAU | 0.352

Set 2 — technique: RNAcompete; molecule type: RNA; medium: in vitro; tested at: 20 nM; setting: 7-mer, probes averaged, single round; relative to: mean of 7-mers; direction: higher = stronger binding
Target: PABPC1L2, full length, GST fusion (mouse, UniProt A0ABA7IW68)
Sequence | 7-mer Z-score
AUCGUCC | -0.267
CCGAUUA | -0.242
CAAUGCA | -0.0428
CCCCCUC | -0.559
GUAAUGC | -0.122
GGGCGGG | 0.247
CACCUCA | -0.186
UGCUUCU | -0.291
GGCUUUG | -0.32
AGACGGA | -0.0228
CGCUCCC | -0.347
AAAACAA | 9.26
GAGUGGA | 0.0696
AUCGGUA | -0.112

Set 3 — technique: DHFR PCA, deep sequencing; medium: yeast; with: (+)-ABA 0.032 µM; relative to: wild-type fitted maximum; direction: higher = stronger binding
Target: ABI1, truncated, D143A, DHFR fusion (Arabidopsis thaliana)
Setting: methotrexate growth selection, single substitutions
Starting sequence: PYL1, truncated, DHFR fusion (Arabidopsis thaliana); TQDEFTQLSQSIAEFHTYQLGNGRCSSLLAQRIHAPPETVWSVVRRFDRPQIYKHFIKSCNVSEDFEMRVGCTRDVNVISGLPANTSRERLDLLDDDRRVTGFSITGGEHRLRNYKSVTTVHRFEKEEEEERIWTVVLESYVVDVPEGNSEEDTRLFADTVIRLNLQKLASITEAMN; partner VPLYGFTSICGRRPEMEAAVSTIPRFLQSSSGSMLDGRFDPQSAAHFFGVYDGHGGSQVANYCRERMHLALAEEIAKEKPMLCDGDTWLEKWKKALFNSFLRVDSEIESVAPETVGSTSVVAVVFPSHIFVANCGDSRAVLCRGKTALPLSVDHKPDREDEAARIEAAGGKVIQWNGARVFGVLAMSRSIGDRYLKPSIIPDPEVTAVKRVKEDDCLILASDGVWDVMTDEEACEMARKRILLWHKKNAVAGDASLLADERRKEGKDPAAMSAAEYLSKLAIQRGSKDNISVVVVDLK
Change | relative binding score
F5N | -8.01%
P36Q | 7.03%
E130M | 12.9%
N177D | 21.1%
L169A | -1.02%
K116F | -4.79%
S104V | -4.09%
E14Q | 10.3%
R74P | 2.02%
R98A | 5.68%

Set 4 — target: CCNA1, cyclin fold, Cln2 fusion (human); technique: yeast growth competition, sequencing; medium: yeast; setting: weak parent motif; relative to: not given; direction: higher = stronger binding
Starting sequence: SAMHD1 docking peptide (human); ASKSRVQLFKDDP; partner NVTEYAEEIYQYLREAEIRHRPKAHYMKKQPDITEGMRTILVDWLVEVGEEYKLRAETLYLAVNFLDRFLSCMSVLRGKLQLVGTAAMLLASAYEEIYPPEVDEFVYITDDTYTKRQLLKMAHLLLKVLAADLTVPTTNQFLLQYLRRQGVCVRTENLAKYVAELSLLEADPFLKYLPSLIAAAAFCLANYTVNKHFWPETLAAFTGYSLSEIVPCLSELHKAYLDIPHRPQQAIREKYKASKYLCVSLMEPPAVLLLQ
Change | normalised enrichment score
K10P | 0.352
K3G | 0.126
D11E | 0.336
D12N | 0.395
K3L | 0.359
D12L | 0.278
F9R | 0.339
S2G | 0.137
K3T | -0.244
D11V | 0.205
R5D | 0.0688
F9M | 0.595
K10Q | 0.389
Q7S | 0.0656
R5S | -0.00974
L8P | 0.25

Set 5 — technique: protein binding microarray; molecule type: double-stranded DNA, one strand shown; medium: in vitro; tested at: not given; relative to: not given; direction: higher = stronger binding
Target: Histone acetyltransferase KAT6A, winged helix 2, GST fusion (KAT6A, Homo sapiens, UniProt Q92794, residues 85-181)
Setting: 8-mer, flanks averaged, mean of 2 arrays, mostly near background
Residues (chain): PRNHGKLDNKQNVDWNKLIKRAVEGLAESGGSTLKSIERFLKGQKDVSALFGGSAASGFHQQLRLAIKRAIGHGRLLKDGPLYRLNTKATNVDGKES
Sequence | E-score
AAAGCACC | 0.0476
AGGCGCGA | 0.197
GTTGATGA | 0.0215
AAATACTG | -0.0529
CCGCAAGC | -0.0742
GCGATCAC | 0.0544
GGGCTTGA | -0.0144
TCTCAGCA | 0.0341
AAGCCAGG | 0.0477
AGAATAAG | 0.0673
ATGATGTG | -0.104
ACTTCGTA | -0.0711
CATACAAC | -0.0902
ACCCGCCC | 0.271
CACGATTC | 0.0116
CGAACGTC | -0.066
GCACCCAC | 0.248
GAAATTGA | 0.0274

Set 6 — technique: RNA Bind-n-Seq; molecule type: RNA; medium: in vitro; tested at: not given; relative to: input RNA pool; direction: higher = stronger binding
Target: RING finger protein unkempt homolog, zinc fingers 1-6, GST-SBP tag (UNK, Homo sapiens, UniProt Q9C0B0, residues 30-357)
Sequence of UniProt Q9C0B0 (30-357, looked up): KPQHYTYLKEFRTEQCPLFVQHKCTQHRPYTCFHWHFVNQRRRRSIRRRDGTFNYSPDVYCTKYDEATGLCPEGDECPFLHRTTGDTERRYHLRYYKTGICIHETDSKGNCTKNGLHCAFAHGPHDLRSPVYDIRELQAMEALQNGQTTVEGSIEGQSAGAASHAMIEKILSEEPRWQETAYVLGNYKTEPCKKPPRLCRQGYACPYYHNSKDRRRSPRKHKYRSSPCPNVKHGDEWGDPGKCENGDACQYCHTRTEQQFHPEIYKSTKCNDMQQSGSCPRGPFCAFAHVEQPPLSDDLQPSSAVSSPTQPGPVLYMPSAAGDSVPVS
Setting: RNA with constant flanks, human-mouse chimeric sites, ends assumed
Constant ends, left off below: GGGAGUUCUACAGUCCGACGAUC … CAACAGAGGAUUGAGCAUCA
Sequence | bound/input enrichment [ratio]
GAAUCCUACUCAGGCGGUCCCACAACAACCAAGCUCACAGCAGCAGCAUCUUAGUCACAGUUAGGUAGUUUUGGGGCUCUGUGGCCAGGGUUUUAUUCACAUGCAGGUUUGGAAAAUGUA | 1.73
CGGAGCCCCUCCCUCUCACAGGCCCAAGAUGUGACCCACCAGUGCCUUUUGUCUUCCUGUCAGCUCUGUCAAUCACGCCUGUCCUCUCACGCCCACACCAAGUGCCCAAAGUGGGGAGGG | 0.294
UGGCGCCUGCGCUCCCCACUCGUGUUUUUAAGUGUAUUUUUAUAAGAUACAUGUAUUUACAAUUGAGCUUUUGUUACAUAAUGCUGAAAACAUCUCUCAAUAUUAUGAAAAUGUUUCAAU | 0.133
GUCAACAGCUGCCUCAACCCCAUCCUCUACGCCUUCCUGGAUGAGAACUUCAAGGCCUGCUUCCGCAAGUUCUGCUGUGCAUCUGCCCUGCACCGGGAGAUGCAGGUGUCUGACCGCGUG | 0.286
UCUUUAAAAAAAAAAUUACCUUUUCUGACAGUGCUUUCCCUCCCAUAGAUCCACGUUCACACUAGAAGAGCAAAGGCUUUGCACGGAUCUGAUGAUGCUGAUGAAGAAAGAUUUCUGAGA | 0.681
CUGUGUGUGCUGAAUAAAUGGCUUGUAAAGAAGUUUUUCCAAGCUGUAACCCAUGCUGUUAUUAUAGUUGCUGCAAAAUGUUCUUCCUAUUGAUGUUUUUAUUUGUUAACUGAAGGUCUC | 0.278
ACCUCCCCCUCCCGCCUCACCCCACCCCCGCUUUUUGGAAAGUUUUUGGCGUUUCUUUUCCUUCCCCAUACAAAGUGGUUUUUACCAAGAGUCUAUGGGUCUAUCGAAGGGCUUGACGGA | 0.467
GAAAGAGAAGCUAAAACACUAAUAGAGAAGAGGAUUGGCAAAGAGAAUUUCAUAGAGAAACUAGGAUUUAUUAGCAAACAUGAGUUAUAUUCCAGAGCGUCUCAGAAACCCCAGCCAAAC | 5.85

Some of these lines once more (set 1):
Sequence | RBNS enrichment (R)
AUAGCAGACGGACAGCCAGUGACCAUUCAUGGUCUGGAAUGUGAAGUUCACUACCAUUUGUCAAGAACCACUCUGUCCACAUCCUUUGACCUUUUGGCUUCCACGUCACC | 0.211
CUCUGCAGUCAGUCUGUUUUCAGAGGCACCCCAGCGAGCCCAGUGCAAGCCCGUAACCCUCCAGAGCUCCUUCACACUGCGCUCUCCAAACCACCCCAUCCUCACAGCGA | 0.594
ACAGGAGCGCAGUAUUUAGUCCAUUGUUUUAUCCAGUGAGACCCAAGCUAGCCUUGAAUAAUUCUUCUCUCGUCUUCCUGAAACACUAUUAUGCUUGUUGUACCUUUAAA | 0.73
UAAGAAAAAUUCUUAUUUCUUUUUUUCACAGUGAACAUAAUCCUAAAUCCUUGGAUAUUUUUAGAAGUCUGUAACUUUACACAAAUAAUGAAAUAAUUUUUAAUUCAAAG | 0.617
UGCAGAAUGACAGCUCUUUGUUUCUGAAGUAACCAGCACACCACACUCAUGUUUAAAAGGACAAAGGGGAAUGAAGGUCAGUGAGAUCUAAAAAGUGUAUUUCUUUGCCA | 1.22
AGGCAUGAUCCUCUAUGGACACUAACUUACCCCAUGUCCACCUUUGCCCAAAAACACUGAAACUGUGCUCUCUGCCACCUGCCCCCCACGCUUUUUCUUUUUCUCUCUUU | 0.961
AUUUGGGGGGGAGGAUGGGGAAAAGAGCUGAGAGUUUAUGCUGAAAUGGAUUUAUAGAAUAUUUGUAAAUCUAUUUUUAGUGUUUGUUCGUUUUUUUAACUGUUCAUUCC | 0.587
